{"data": "Experimental data pooled from the literature", "note": "Parts stem from different laboratories: compare values within a part only."}
{"data": "Series 1", "target": "Max dimerization protein 1, bHLH-zipper, MAX partner unstated (MXD1, Homo sapiens, UniProt Q05195, residues 56-136)", "method": "protein-binding microarray", "form": "double-stranded DNA, one strand shown", "medium": "in vitro", "concentration": "not given", "notes": "k-mer, scored over probes, only values ≥0.25", "direction": "higher = stronger binding", "Residues (chain)": "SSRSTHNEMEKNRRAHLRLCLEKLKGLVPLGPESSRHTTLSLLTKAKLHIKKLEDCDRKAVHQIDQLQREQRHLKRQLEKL"}
{"Sequence": "GAGGGGAA", "E-score": 0.258}
{"Sequence": "GGGGGGTA", "E-score": 0.33}
{"Sequence": "CATGCCGA", "E-score": 0.387}
{"Sequence": "ATGCCGCA", "E-score": 0.252}
{"Sequence": "ACGCGGCG", "E-score": 0.262}
{"Sequence": "ATGAGGGA", "E-score": 0.275}
{"Sequence": "AAGCATGA", "E-score": 0.316}
{"Sequence": "CATGCCAA", "E-score": 0.322}
{"Sequence": "GCCCCGCC", "E-score": 0.324}
{"data": "Series 2", "target": "Histone acetyltransferase KAT6A, winged helix 1, GST fusion (KAT6A, Homo sapiens, UniProt Q92794, residues 1-85)", "method": "protein binding microarray", "form": "double-stranded DNA, one strand shown", "medium": "in vitro", "concentration": "not given", "notes": "8-mer, flanks averaged, mean of 2 arrays, mostly near background", "baseline": "not given", "direction": "higher = stronger binding", "Target sequence (chain)": "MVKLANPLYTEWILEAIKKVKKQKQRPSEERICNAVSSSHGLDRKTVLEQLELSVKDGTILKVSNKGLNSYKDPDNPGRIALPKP"}
{"Sequence": "GCCAGCGA", "E-score": 0.0727}
{"Sequence": "ATACAGAA", "E-score": -0.142}
{"Sequence": "GACTCAAA", "E-score": -0.148}
{"Sequence": "ACGCGGAA", "E-score": 0.262}
{"Sequence": "CAATGGGC", "E-score": -0.164}
{"Sequence": "CAGTTGCC", "E-score": 0.106}
{"Sequence": "CTGCCTAC", "E-score": -0.0147}
{"Sequence": "ACCTGCCC", "E-score": -0.0742}
{"Sequence": "ACTGTGTC", "E-score": -0.123}
{"data": "Series 3", "target": "Sal-like protein 4, full length isoform B (SALL4, Homo sapiens, UniProt Q9UJQ4-2, residues 1-616)", "method": "universal PBM", "form": "double-stranded DNA, one strand shown", "medium": "in vitro", "concentration": "not given", "notes": "8-mer, flanks averaged, mean of replicates", "direction": "higher = stronger binding"}
{"Sequence": "ACTGCAGC", "E-score": -0.245}
{"Sequence": "AAAATGTT", "E-score": 0.316}
{"Sequence": "CCCGATAA", "E-score": -0.0483}
{"Sequence": "GCGAGGGA", "E-score": -0.114}
{"Sequence": "GAGTATCC", "E-score": -0.183}
{"data": "Other studies, line by line"}
{"Molecule": "PhoQ, residues 284 288 289 292 302 303 QWGLFV", "target": "PhoP, residues 12 14 15 18 19 YHFSH (Escherichia coli, UniProt P23836)", "test": "Sort-seq, measured: YFP reporter", "system": "E. coli", "conditions": "PhoQ-PhoP variant library, with: 10 µM Mg2+", "how to read": "baseline: high Mg2+ state, higher = stronger signaling", "endpoint": "fold induction", "result": 5.41}
{"note": "A few entries again (series 1):"}
{"Sequence": "GGGGGGTA", "E-score": 0.33}
{"Sequence": "ATGCCGCA", "E-score": 0.252}
{"Sequence": "ATGAGGGA", "E-score": 0.275}
